# Published values of several laboratories.
# Every numbered part comes from another study and shows a few of its results, in no order. Positions count from the first letter of the parent shown.
# Chain of UniProt P29376 (whole entry, looked up): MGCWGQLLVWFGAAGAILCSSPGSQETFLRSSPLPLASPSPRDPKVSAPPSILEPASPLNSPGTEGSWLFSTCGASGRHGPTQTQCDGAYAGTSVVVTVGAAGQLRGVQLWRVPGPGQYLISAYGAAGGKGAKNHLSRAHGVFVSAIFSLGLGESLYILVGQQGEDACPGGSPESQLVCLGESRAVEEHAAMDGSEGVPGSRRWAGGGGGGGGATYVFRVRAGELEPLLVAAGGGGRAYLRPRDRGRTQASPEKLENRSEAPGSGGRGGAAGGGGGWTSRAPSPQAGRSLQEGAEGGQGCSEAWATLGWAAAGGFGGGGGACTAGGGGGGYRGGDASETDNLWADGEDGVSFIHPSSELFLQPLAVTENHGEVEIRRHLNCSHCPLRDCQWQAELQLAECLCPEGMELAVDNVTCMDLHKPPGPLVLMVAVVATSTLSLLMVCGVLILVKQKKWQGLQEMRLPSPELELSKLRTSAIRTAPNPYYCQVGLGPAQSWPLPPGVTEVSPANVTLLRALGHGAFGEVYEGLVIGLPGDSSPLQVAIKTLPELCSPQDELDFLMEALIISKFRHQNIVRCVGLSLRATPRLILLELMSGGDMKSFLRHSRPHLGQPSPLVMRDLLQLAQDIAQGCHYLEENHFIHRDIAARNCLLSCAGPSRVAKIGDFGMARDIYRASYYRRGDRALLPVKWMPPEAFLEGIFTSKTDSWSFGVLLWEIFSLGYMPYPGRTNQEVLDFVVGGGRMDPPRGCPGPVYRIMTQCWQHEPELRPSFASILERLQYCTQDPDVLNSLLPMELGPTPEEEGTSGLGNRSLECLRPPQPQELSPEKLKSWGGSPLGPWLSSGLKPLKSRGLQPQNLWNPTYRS
# Chain of UniProt P20309 (whole entry, looked up): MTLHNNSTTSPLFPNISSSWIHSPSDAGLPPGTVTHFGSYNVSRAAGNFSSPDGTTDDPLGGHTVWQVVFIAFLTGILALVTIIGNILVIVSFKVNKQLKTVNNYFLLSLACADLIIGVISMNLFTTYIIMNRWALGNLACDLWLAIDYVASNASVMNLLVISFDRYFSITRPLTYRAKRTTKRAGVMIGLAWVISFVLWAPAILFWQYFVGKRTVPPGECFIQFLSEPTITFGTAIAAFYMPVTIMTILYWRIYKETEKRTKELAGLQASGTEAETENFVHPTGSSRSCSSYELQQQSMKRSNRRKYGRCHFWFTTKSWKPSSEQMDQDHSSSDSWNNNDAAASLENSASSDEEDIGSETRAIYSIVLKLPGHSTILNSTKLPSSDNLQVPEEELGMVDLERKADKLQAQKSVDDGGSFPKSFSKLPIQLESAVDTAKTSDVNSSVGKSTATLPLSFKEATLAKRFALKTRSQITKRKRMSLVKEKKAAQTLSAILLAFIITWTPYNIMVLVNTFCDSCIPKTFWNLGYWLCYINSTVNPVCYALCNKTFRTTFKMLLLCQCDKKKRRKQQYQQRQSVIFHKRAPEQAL

# Set 1
# Target: Interferon regulatory factor 7, full length, phosphomimetic (IRF7, Homo sapiens, UniProt Q92985, residues 1-503, S471D/S472D/S475D/S476D/S477D/S483D/S484D/S487D)
# Chain of UniProt Q92985 (whole entry, unmodified, looked up): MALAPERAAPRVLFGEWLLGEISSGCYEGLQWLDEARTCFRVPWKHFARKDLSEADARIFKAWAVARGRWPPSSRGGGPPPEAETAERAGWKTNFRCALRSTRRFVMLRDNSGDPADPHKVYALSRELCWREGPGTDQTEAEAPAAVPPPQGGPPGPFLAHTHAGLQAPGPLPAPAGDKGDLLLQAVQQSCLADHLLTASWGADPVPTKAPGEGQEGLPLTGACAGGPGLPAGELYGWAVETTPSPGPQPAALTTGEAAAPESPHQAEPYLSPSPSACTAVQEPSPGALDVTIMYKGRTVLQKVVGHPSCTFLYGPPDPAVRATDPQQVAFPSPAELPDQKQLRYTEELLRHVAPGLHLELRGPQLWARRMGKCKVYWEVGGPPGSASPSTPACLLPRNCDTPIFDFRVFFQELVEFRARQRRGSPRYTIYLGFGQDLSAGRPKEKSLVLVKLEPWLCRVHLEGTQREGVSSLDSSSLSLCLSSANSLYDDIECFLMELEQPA
# Technique: protein-binding microarray
# Molecule type: double-stranded DNA, one strand shown
# Sample: in vitro
# Concentration: 2200 nM top
# Setting: 60-bp whole probe
# With: salmon DNA 0.4 mg/ml
# Reference: random background probes
# Direction: higher = stronger binding
# Constant ends, left off below: GCCTAGCAC … GTCTTGATTCGCTTGACGCTGCTG
Strand,fitted relative affinity
TACTCTCTCCATGTGTTTAAGTGCTAG,1.81 z-score
TTAGGTTACCTTTTCCTTTAGTGCTAG,1.8 z-score
TTAGGTATCAGTCTCGGTTAGTGCTAG,0.819 z-score
TTAGAATTCGGGTATCGATTAGTGCTA,0.393 z-score
TTAGGTCTCCTTATCCTTAAGTGCTAG,0.898 z-score
GACGGACTGGACTCTCGGGACGTGCTA,-0.803 z-score
TTAGGTCTCGGTTTCAGTTAGTGCTAG,2.84 z-score
TTAGATCTCAGACTGGATTCGTGCTAG,0.116 z-score

# Set 2
# Target: RING finger protein unkempt homolog, zinc fingers 1-6, SBP tag (UNK, Homo sapiens, UniProt Q9C0B0, residues 30-357)
# Chain of UniProt Q9C0B0 (30-357, looked up): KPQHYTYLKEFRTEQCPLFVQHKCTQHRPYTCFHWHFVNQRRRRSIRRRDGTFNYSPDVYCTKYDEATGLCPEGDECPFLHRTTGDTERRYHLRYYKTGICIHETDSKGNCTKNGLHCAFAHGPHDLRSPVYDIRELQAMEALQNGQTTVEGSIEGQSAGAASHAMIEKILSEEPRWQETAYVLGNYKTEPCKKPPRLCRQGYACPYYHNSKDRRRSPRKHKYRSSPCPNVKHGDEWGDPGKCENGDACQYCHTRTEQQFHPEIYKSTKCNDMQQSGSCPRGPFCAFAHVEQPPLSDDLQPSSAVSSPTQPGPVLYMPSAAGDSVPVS
# Technique: RNA Bind-n-Seq
# Molecule type: RNA
# Sample: in vitro
# Concentration: 100 nM
# Setting: RNA with constant flanks, vertebrate orthologous sites, ends assumed
# Reference: input RNA pool
# Direction: higher = stronger binding
# Constant ends, left off below: GGGAGUUCUACAGUCCGACGAUC … CAACAGAGGAUUGAGCAUCA
Strand,bound/input enrichment [ratio]
AAGAUGGUGGUUGUACAUUAUUUCAUUUAGAAAAUAUAAACUUUAAUUUUGUUUUGAAGUUAGGUGUUAAACUGGAAUAGCUAUCAUACCCCGGAUAAUGGGGGCAGUUGUGCCCUUCCC,0.778
AGGGACGCUUUGAUGUAAAAAUUGAAGUUAAGAGCUGAUCACAAGCACAAAUCUUCCCCACUAGCCAUUUAAAAAGUUAAAAAAGAUACAAAAACAAAAACCUACUAGUCUUGAACAAAC,2.27
AAUGGCUUUUGCUUCAUGAAAAAGACUAAAAAAUAGUCCCCUCAAUUAAAAAUGCCUAAAUAGCUAUUUUAAAAAUCAAAAUGUUUAAAUUUCGUAAAUCACCUGAUGUCACUACACGCC,0.773
AGCUGACUCACUCAUUAGGGAGAGCUGCACAUAUAGCUGUUCUUGAUUCAGAAAUAUUUUUAGAGAAAUUCUUUCUGGUUGCUGCCCUCAAAUAUUUCCAAUAAGAUAAAAACAUUGUUA,0.555
GAGCUAAAGGAGUUAGCAUCUUUAUUUUUGUAUCAAAGAUAAAGGUUAUUUUGAAAUUAUUAGGAUUUUUACACAACUCUGAAAUCUGUUGCUUUUUGUAUAAACAAAUUGUUUGAUCUU,1.24
UGGGUUACUCUUAUUAUUAUCAAGUAGCUGGAAUUGUGAAGGUCGGAGUAGUUAGAAUUUUAGCUUUUAUUCCUUUUUUUGUAUUACUAUCCAUGUGUAUAAAUUAUUGAUCAUGUUGCU,1.65
CAUUUUUACAAUCUAAAACUGGUAUUUUCAAACAAUAGGAACCUUUUUUUUUUUUUUUUACAGUUUAUCUGGUUUCUACAUGGAAGACUAAAUAAACCCAUGCUUGUUGCUAAAUGGGGU,0.515
UCCUCAACCUGUUCUAGCUUGUGAUCCUUCAAAGUUGGGUCAUACAUUAGUGCUAGAUACUAGAAAUUUUCACUUUUCCAUUGAUCAGAGAGUCAGACAUAUAAAAACGAAAAUAAAAGA,1.18

# Set 3
# Target: CCNA2, cyclin fold, Cln2 fusion (human)
# Technique: yeast growth competition, sequencing
# Sample: yeast
# Setting: strong parent motif
# Reference: not given
# Direction: higher = stronger binding
# Parent: viral docking peptide; TSVRRALFTGGSD; partner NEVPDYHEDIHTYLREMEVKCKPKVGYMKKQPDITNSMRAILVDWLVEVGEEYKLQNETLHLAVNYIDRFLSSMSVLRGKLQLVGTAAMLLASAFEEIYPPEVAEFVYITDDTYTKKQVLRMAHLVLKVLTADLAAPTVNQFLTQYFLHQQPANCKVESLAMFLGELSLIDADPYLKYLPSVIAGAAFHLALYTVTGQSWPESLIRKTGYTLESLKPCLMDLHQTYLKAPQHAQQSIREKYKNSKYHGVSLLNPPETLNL
Variant,normalised enrichment score
TSVRRALFTGGHD [S12H],6.46
TSVRRALFTGGPD [S12P],6.36
TSVRRALFFGGSD [T9F],6.68
TSVRRALFTGRSD [G11R],6.1
TSVRRGLFTGGSD [A6G],4.5
TSVRRALFTGGRD [S12R],6.23
TSVARALFTGGSD [R4A],4.28
TSHRRALFTGGSD [V3H],2.13
TSVRGALFTGGSD [R5G],0.336
TSVRRALFTGGDD [S12D],6.44
TSVRRELFTGGSD [A6E],5.45
TSVRRALFTNGSD [G10N],6.34
THVRRALFTGGSD [S2H],6.37
TSCRRALFTGGSD [V3C],6.14
TSVRRKLFTGGSD [A6K],6.16
TSVRRALFTGGAD [S12A],5.92
TSSRRALFTGGSD [V3S],3.87
TSVRRALFTGGTD [S12T],6.3
TSNRRALFTGGSD [V3N],0.147
TSVRRALFTKGSD [G10K],6.2
TSVRRLLFTGGSD [A6L],3.95
TSVRRALFKGGSD [T9K],6.22
TSVRRALFEGGSD [T9E],5.75
TSYRRALFTGGSD [V3Y],4.01
TSVRRALETGGSD [F8E],-0.0546

# Set 4
# Target: Sal-like protein 4, full length isoform B (SALL4, Homo sapiens, UniProt Q9UJQ4-2, residues 1-616)
# Technique: universal PBM
# Molecule type: double-stranded DNA, one strand shown
# Sample: in vitro
# Concentration: not given
# Setting: 8-mer, flanks averaged, mean of replicates
# Direction: higher = stronger binding
# Construct (chain): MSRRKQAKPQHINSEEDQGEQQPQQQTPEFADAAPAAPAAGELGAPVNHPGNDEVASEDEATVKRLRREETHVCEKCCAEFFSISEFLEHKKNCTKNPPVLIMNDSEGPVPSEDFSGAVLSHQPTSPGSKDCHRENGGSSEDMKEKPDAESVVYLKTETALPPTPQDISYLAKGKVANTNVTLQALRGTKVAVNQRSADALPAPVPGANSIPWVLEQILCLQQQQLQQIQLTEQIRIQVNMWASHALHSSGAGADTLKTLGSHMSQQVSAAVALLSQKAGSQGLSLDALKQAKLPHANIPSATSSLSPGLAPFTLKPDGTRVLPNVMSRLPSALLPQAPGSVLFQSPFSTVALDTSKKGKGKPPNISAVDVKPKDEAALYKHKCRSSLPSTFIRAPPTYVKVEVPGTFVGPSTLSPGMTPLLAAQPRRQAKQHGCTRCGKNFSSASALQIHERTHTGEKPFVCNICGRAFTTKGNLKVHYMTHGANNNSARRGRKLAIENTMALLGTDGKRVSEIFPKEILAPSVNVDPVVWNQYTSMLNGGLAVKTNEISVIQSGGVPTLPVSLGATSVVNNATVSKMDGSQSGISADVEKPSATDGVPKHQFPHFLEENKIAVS
Strand,E-score
AACGTCAC,-0.0291
CTCTATAA,0.31
ATTCGATC,0.0103
ATCCACTC,-0.0263
GTAAGTGA,0.114
ACCTTGAC,-0.0944
ACAGCGTA,-0.12
GGTATGAC,0.0145

# Other studies, line by line
Compound,target,test,setting,measurement,result
N#CN1CC[C@H](C(=O)Nc2nc3c(s2)CN(C(=O)CN=[N+]=[N-])CC3)C1,"CHRM3 (Homo sapiens, UniProt P20309)",ligand displacement,10 µM,inhibition,-1.04%
Nc1[nH]nc2nc3ccccc3nc12,"LTK (Homo sapiens, UniProt P29376)","enzyme activity, inhibitor, radiometric",0.5 µM,remaining activity,89.4%

# Excerpt of the above (set 3):
Variant,normalised enrichment score
TSVRRALFFGGSD [T9F],6.68
TSVRRALFTGRSD [G11R],6.1
TSVRRGLFTGGSD [A6G],4.5
TSVRRALFTGGRD [S12R],6.23
TSVARALFTGGSD [R4A],4.28
TSHRRALFTGGSD [V3H],2.13
TSVRGALFTGGSD [R5G],0.336
TSVRRALFTGGDD [S12D],6.44
